Experimental data gathered from unrelated publications.
Compare with care: the assays were run in different laboratories.
Cell line: SNB-19

SMILES = C#C[C@@]1(O)[C@@H](CO)O[C@@H](n2cc(F)c3c(N)ncnc32)[C@@H]1O; method = SRB; setting = NCI-60 screen; quantity = TGI; result = 13.7 µM
SMILES = CCCCN1CCN(c2ccc3[nH]c(-c4ccc5[nH]c(-c6ccc(OCC)cc6)nc5c4)nc3c2)CC1; method = SRB; tested at = 10 µM; time = 48 h; quantity = growth percent; result = 85.3%
SMILES = O=C(Nc1nnc2n3c(=S)[nH][nH]c3nc(-c3ccc(Cl)cc3)c1-2)c1ccccc1; method = SRB; tested at = 10 µM; setting = NCI60 single-dose screen; reference = untreated; quantity = cell growth; result = 75.6%
SMILES = CCCC(CCC)C(=O)OCc1cn(-c2c3ccccc3nc3ccccc23)nn1; tested at = 10 µM; setting = CNS cancer cell line, NCI60; quantity = growth percentage; result = 96.3%
SMILES = O=C(Nc1nnc2n3c(nc(-c4ccc(Cl)cc4)c1-2)SCC3=O)c1ccccc1; method = SRB; tested at = 10 µM; setting = NCI60 single-dose screen; reference = untreated; quantity = cell growth; result = 94.3%
SMILES = Cn1cncc1C1=CN(c2ncnc3[nH]cnc23)CCS1; setting = CNS cancer; quantity = TGI; result = 200 µM
SMILES = CCOc1ccc(-c2nc3cc(-c4nc5cc(N6CCN(C)CC6)ccc5[nH]4)ccc3[nH]2)cc1OCC; method = SRB; tested at = 10 µM; time = 48 h; quantity = growth percent; result = 8.93%
SMILES = O=C(Nc1nnc2[nH]c(=S)[nH]c(-c3ccc(Cl)cc3)c1-2)c1ccccc1; method = SRB; tested at = 10 µM; setting = NCI60 single-dose screen; reference = untreated; quantity = cell growth; result = 95.3%
SMILES = Cc1cc(=O)[nH]c(=O)n1Cc1cn(-c2cc3ccccc3oc2=O)nn1; tested at = 10 µM; setting = CNS cancer cell line, NCI60; quantity = growth percentage; result = 102%
SMILES = CCCN1CCN(c2ccc3[nH]c(-c4ccc5[nH]c(-c6ccc(OCC)c(OCC)c6)nc5c4)nc3c2)CC1; method = SRB; tested at = 10 µM; time = 48 h; quantity = growth percent; result = -39.7%
SMILES = O=C1NC(=NCc2cccs2)S/C1=C\c1ccc2ncccc2c1; method = MTS; setting = NCI60 panel; quantity = IC50; result = > 10 µM
SMILES = Cc1cc(=O)[nH]n1-c1nc(-c2ccc(Cl)cc2)c2c(NC(=O)c3ccccc3)nnc-2[nH]1; method = SRB; tested at = 10 µM; setting = NCI60 single-dose screen; reference = untreated; quantity = cell growth; result = 91.6%
SMILES = CN1CCN(c2ccc3[nH]c(-c4ccc5[nH]c(-c6ccc(C(F)(F)F)cc6)nc5c4)nc3c2)CC1; method = SRB; tested at = 10 µM; time = 48 h; quantity = growth percent; result = 74.2%
SMILES = Cc1cc(-c2ccccc2)n(-c2nc(-c3ccc(Cl)cc3)c3c(NC(=O)c4ccccc4)nnc-3[nH]2)n1; method = SRB; tested at = 10 µM; setting = NCI60 single-dose screen; reference = untreated; quantity = cell growth; result = 90.5%
SMILES = CCCCN1CCN(c2ccc3[nH]c(-c4ccc5[nH]c(-c6ccc(C(F)(F)F)cc6)nc5c4)nc3c2)CC1; method = SRB; tested at = 10 µM; time = 48 h; quantity = growth percent; result = -91.4%
SMILES = Cc1cc(=O)[nH]c(=O)n1Cc1cn(-c2c3ccccc3nc3ccccc23)nn1; tested at = 10 µM; setting = CNS cancer cell line, NCI60; quantity = growth percentage; result = 87.3%
SMILES = CCOC(=O)CSc1nc(-c2ccc(Cl)cc2)c2c(NC(=O)c3ccccc3)nnc-2[nH]1; method = SRB; tested at = 10 µM; setting = NCI60 single-dose screen; reference = untreated; quantity = cell growth; result = 91.2%
SMILES = CCCN1CCN(c2ccc3nc(-c4ccc5nc(-c6cc(OC)ccc6OC)[nH]c5c4)[nH]c3c2)CC1; method = SRB; tested at = 10 µM; time = 48 h; quantity = growth percent; result = 115%

Repeated from above:
SMILES = O=C1NC(=NCc2cccs2)S/C1=C\c1ccc2ncccc2c1; method = MTS; setting = NCI60 panel; quantity = IC50; result = > 10 µM
